Assay results gathered from unrelated publications.
Lines come from different studies, so protocols differ. Numbers after ± are the reported error.
Organism: Plasmodium falciparum

| Structure (SMILES) | test | test system | conditions | scale | quantity | value |
| --- | --- | --- | --- | --- | --- | --- |
| O=S(=O)(c1ccc(-c2ccc3nccc(Nc4cccnc4)c3c2)cc1)N1CCOCC1 | parasite growth, SYBR Green | W2 |  |  | EC50 | 1000 nM |
| CC(C)NCCOCC(=O)N1CCC[C@H](C(=O)NCc2nc(-c3ccc(C(F)(F)F)cc3)cs2)C1 | SYBR Green growth | asexual blood-stage parasites, 3D7 | 72 h |  | EC50 | 57 ± 16 nM |
| COc1cc(OC)c(CCNC(=O)c2cn3cc(-c4cc(OCC(=O)O)ccc4OC)nc3s2)c(OC)c1 | schizont egress, Nluc release | Hyp1-Nluc | 10 x growth EC50, 4 h |  | inhibition | -41.5% |
| NC[C@H](OCC(=O)N1CCC[C@H](C(=O)NCc2nc(-c3ccc(C(F)(F)F)cc3)cs2)C1)c1ccccc1 | SYBR Green growth | asexual blood-stage parasites, 3D7 | 72 h |  | EC50 | 400 ± 97 nM |
| Cn1cc(-c2cnc3[nH]cc(-c4cn(Cc5cccc(F)c5F)nn4)c3c2)cn1 | LDH readout | 3D7 Hyp1-Nluc | 2 µM, 72 h | relative to: DMSO | parasite growth | 12.4% |
| CCC[C@@H]1C[C@@H](C(=O)N[C@@H]([C@H]2O[C@H](SC)[C@H](O)[C@@H](O)[C@H]2O)[C@H](C)Cl)N(C)C1 | growth | 3D7 | 96 h, together with: 200 µM IPP | relative to: with IPP over without IPP | IC50 ratio | > 140 |
| O=S(=O)(c1ccc(-c2ccc3nccc(Nc4ccccc4)c3c2)cc1)N1CCOCC1 | parasite growth, SYBR Green | W2 |  |  | EC50 | 1500 nM |
| COC1=CC(c2ccc[nH]2)=N/C1=C\c1cc(Cc2ccc(OC(F)(F)F)cc2)c(C)[nH]1 | parasite growth, SYBR Green fluorescence | Tm90-C2B (atovaquone-resistant), asexual blood stage | 72 h |  | IC50 | 8.88 nM |
| CNS(=O)(=O)c1ccccc1Nc1nc(Nc2cc(OC)c(OC)cc2C)ncc1Br | LDH readout | 3D7 Hyp1-Nluc | 2 µM, 72 h | relative to: DMSO | parasite growth | 12.1% |
| Cl.N=C(CC(O)c1cc2c(F)cc(F)cc2c2cc(C(F)(F)F)ccc12)Nc1ccc(F)c(F)c1 (centres unmarked) | parasite reduction ratio | 3D7 ring stage | 10-fold IC50 |  | parasite clearance time | ≤ 72 h |
| COCC(=O)N1CCC[C@H](C(=O)NCc2nc(-c3ccc(-c4cccnc4)cc3)cs2)C1 | SYBR Green growth | asexual blood-stage parasites, 3D7 | 72 h |  | EC50 | 26 ± 7.4 nM |
| CC(C)(C)NC(=O)[C@@H]1CN(Cc2cnc3occc3c2)CCN1C[C@@H](O)C[C@@H](Cc1ccccc1)C(=O)N[C@H]1c2ccccc2C[C@H]1O | erythrocyte invasion |  | 9.22 µM |  | inhibition | 50% |
| N#Cc1ccc(-c2csc(CNC(=O)C3CN(C(=O)COCCF)CC(F)(F)C3)n2)cc1 (racemic) | parasite growth, SYBR Green | 3D7, asexual blood stage | 72 h |  | EC50 | 8.5 ± 2.1 nM |
| O=S(=O)(c1ccc(-c2ccc3nccc(Nc4ccncc4)c3c2)cc1)N1CCOCC1 | parasite growth, SYBR Green | TM91C235 |  |  | EC50 | 540 nM |
| COC1=C(OC)/C(=C/c2[nH]c(Cc3ccc(Cl)cc3)cc2Cc2ccc(Cl)cc2)N=C1c1ccc[nH]1 | parasite growth, SYBR Green fluorescence | Dd2 (multidrug-resistant), asexual blood stage | 72 h |  | IC50 | > 2500 nM |
| Cn1nc2c(=O)n(C3CC3)ncc2c1[C@](N)(c1ccc(C(F)(F)F)c(Cl)c1)C1CC1 | parasite growth |  |  |  | EC50 | 8.6 nM |
| COCC(=O)N1CCC[C@H](C(=O)NCc2nc(-c3ccc(C(=O)N(C)C)cc3)cs2)C1 | parasite growth, SYBR Green | 3D7, asexual blood stage | 72 h |  | EC50 | > 5000 nM |
| Cc1nnc(-c2ccc3ccn(CC(=O)Nc4ccccc4Cl)c3c2)o1 | luminescence | red blood cells, 3D7 Hyp1-Nluc | 10 × EC50, 8 h | relative to: DMSO | fold lysis | 2 fold |

| Structure (SMILES) | test | test system | conditions | scale | quantity | value |
| --- | --- | --- | --- | --- | --- | --- |
| CCc1nc(N)nc(N)c1-c1ccc(Cl)cc1 | parasite reduction ratio washout | 3D7 | 10 x EC50 |  | lag phase | 24 h |
| COCC(=O)N1CCC[C@H](C(=O)NCc2nc(-c3ccncc3)cs2)C1 | SYBR Green growth | asexual blood-stage parasites, 3D7 | 72 h |  | EC50 | 190 ± 40 nM |
| Cc1[nH]c(/C=C2\N=C(c3ccc[nH]3)C=C2OCc2ccccc2)cc1Cc1ccc(OC(F)(F)F)cc1 | parasite growth, SYBR Green fluorescence | Tm90-C2B (atovaquone-resistant), asexual blood stage | 72 h |  | IC50 | 11.3 nM |
| O=C(CCCCCONC(=O)c1nc(-c2cccnc2)cs1)NO |  | 3D7 |  | relative to: NFF cells over P. falciparum | selectivity ratio | 66 |
| Cc1cnnc(Nc2ccnc3ccc(-c4ccc(S(=O)(=O)N5CCOCC5)cc4)cc23)c1 | parasite growth, SYBR Green | D6 |  |  | EC50 | 1200 nM |
| COc1cc(C(=O)N(C)C)ccc1-c1cc2nccc(-c3ccc4ccncc4c3)c2o1 | LDH readout | 3D7 Hyp1-Nluc | 2 µM, 72 h | relative to: DMSO | parasite growth | 30.2% |
| O=S(=O)(c1ccc(-c2ccc3nccc(Nc4ccncn4)c3c2)cc1)N1CCOCC1 | parasite growth, SYBR Green | TM91C235 |  |  | EC50 | > 20000 nM |
| O=C(NCc1nc(-c2ccccc2)cs1)[C@H]1CCCN(C(=O)c2ccccn2)C1 | SYBR Green growth | asexual blood-stage parasites, 3D7 | 72 h |  | EC50 | 2200 ± 310 nM |
| CC1=C(C)/C(=C/c2cc(Cc3ccc(Cl)cc3)c(C)[nH]2)N=C1c1ccc[nH]1 | parasite growth, SYBR Green fluorescence | Dd2 (multidrug-resistant), asexual blood stage | 72 h |  | IC50 | 1260 nM |
| CC1=C(Cc2cn(CCO)nn2)C(=O)c2ccccc2C1=O |  | NF54 |  | relative to: L6 CC50 over IC50 | selectivity index | 9.5 |
| O=S(=O)(c1ccc(-c2ccc3nccc(Nc4nnc(C5CC5)s4)c3c2)cc1)N1CCOCC1 | parasite growth, SYBR Green | D6 |  |  | EC50 | 590 nM |
| Cn1nc2c(=O)n(C3CC3)ccc2c1[C@](O)(c1cnc(C(F)(F)F)c(Cl)c1)C(F)(F)F | parasite growth |  |  |  | EC50 | 0.45 nM |
| COc1ccc(CNc2nc(-c3ccc(C(=O)O)nc3)nc3sc4c(c23)CCCC4)cc1Cl | invasion and early ring development | Hyp1-Nluc | 10 x growth EC50, 4 h |  | inhibition | 46.4% |
| CCOCCOc1ccnc2ccc(-c3ccc(S(=O)(=O)N4CCOCC4)cc3)cc12 | parasite growth, SYBR Green | D6 |  |  | EC50 | 3900 nM |
| O=C(Nc1ccc(CNc2ncnc3ccccc23)cc1)c1ccc(Cl)c(F)c1 | LDH readout | 3D7 Hyp1-Nluc | 20 µM, 72 h | relative to: DMSO | parasite growth | 16.5% |
| COCC(=O)N1CCC[C@H](C(=O)NCc2nc(-c3ccccc3)c[nH]2)C1 | SYBR Green growth | asexual blood-stage parasites, 3D7 | 72 h |  | EC50 | > 5000 nM |
| Cc1cc(Nc2ccnc3ccc(-c4ccc(S(=O)(=O)N5CCOCC5)cc4)cc23)on1 | parasite growth, SYBR Green | D6 |  |  | EC50 | 2200 nM |
